Results from different studies.
Each numbered part is a random draw from the data of one study; scales do not carry over between parts. Substitutions count along the parent as printed.

Block 1
Target: ABI1, truncated, D143A, DHFR fusion (Arabidopsis thaliana)
Technique: DHFR PCA, deep sequencing
Sample: yeast
Notes: methotrexate growth selection, single substitutions
With: (+)-ABA 0 µM
Reference: wild-type fitted maximum
Direction: higher = stronger binding
Parent: PYL1, truncated, DHFR fusion (Arabidopsis thaliana); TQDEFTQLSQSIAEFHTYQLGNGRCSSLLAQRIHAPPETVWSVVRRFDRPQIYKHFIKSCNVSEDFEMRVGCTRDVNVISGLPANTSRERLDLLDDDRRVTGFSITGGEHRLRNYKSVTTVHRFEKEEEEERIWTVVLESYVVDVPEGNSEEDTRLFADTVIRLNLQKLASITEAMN
| Change | relative binding score |
| --- | --- |
| P37E | -3.27% |
| G148E | 4.04% |
| N165Q | 7.01% |
| A175P | 7.65% |
| Y53Q | 0.313% |
| V137D | 3.76% |
| T154M | 2.32% |
| E4V | 23.9% |
| P36A | 8.53% |
| T119H | -2.52% |
| P50H | -0.366% |
| Q51R | 2.03% |
| R69K | 53.3% |
| H110Q | 34.8% |
| K54E | 1.11% |
| R74C | 1.13% |
| V43Y | 2.79% |
| E130C | 20.1% |
| F157C | 8.16% |
| G21C | 12.2% |
| N165K | 4.01% |

Block 2
Target: CCNA2, cyclin fold, Cln2 fusion (human)
Technique: yeast growth competition, sequencing
Sample: yeast
Notes: weak parent motif
Reference: not given
Direction: higher = stronger binding
Parent: CDC42EP1 docking peptide (human); SLVVGKLSFDSSP
| Change | normalised enrichment score |
| --- | --- |
| G5A | 0.172 |
| V3A | 0.293 |
| P13A | 0.117 |
| S8A | -0.00496 |
| D10A | 0.4 |
| L2A | 0.278 |

Block 3
Target: UBE2T UBC core domain (UniProt Q9NPD8)
Technique: yeast two-hybrid
Sample: yeast
Notes: mostly zero background
Reference: not given
Direction: higher = stronger interaction
B1: DTX1 RING domain (UniProt Q86Y01); chain QKVKNPPDEDCTICMERLVTASGYEGVLRHKGVRPELVGRLGRCGHMYHLLCLVAMYSNGNKDGSLQCPTCKAIYGEKTGTQ
B2: RNF135 RING domain (UniProt Q8IUD6); chain PVWLAEDDLGCIICQGLLDWPATLPCGHSFCRHCLEALWGARDARRWACPTCRQGAAQQPHLR
B3: ZNRF3 RING domain (UniProt Q9ULT6); chain DTLSSSSTSDCAICLEKYIDGEELRVIPCTHRFHRKCVDPWLLQHHTCPHCRHNIIEQKGNP
B4: TRIM48 RING domain (UniProt Q8IWZ4); chain ISQVFQRELTCPICMNYFIDPVTIDCGHSFCRPCFYLNWQDIPILTQCFECIKTIQQRNLKT
B5: RNF24 RING domain (UniProt Q9Y225); chain KVKELNLHELCAVCLEDFKPRDELGICPCKHAFHRKCLIKWLEVRKVCPLCNMPVLQLAQLH
B6: RNF181 RING domain (UniProt Q9P0P0); chain VIRGSQAELKCPVCLLEFEEEETAIEMPCHHLFHSSCILPWLSKTNSCPLCRYELPTDDDTY
Target sequence (chain): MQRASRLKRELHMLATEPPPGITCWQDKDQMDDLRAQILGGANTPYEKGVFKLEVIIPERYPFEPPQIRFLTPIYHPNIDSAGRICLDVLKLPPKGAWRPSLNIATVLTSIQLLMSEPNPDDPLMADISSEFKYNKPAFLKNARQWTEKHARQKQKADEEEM
| Molecule | lacZ reporter activity |
| --- | --- |
| ALDRLEKLLRCSRCTNILREPVCLGGCEHIFCSNCVSDCIGTGCPVCYTPAWIQDLKI (BARD1 RING domain (UniProt Q99728)) | 0 |
| B1 (DTX1 RING domain) | 0 |
| B2 (RNF135 RING domain) | 0 |
| B3 (ZNRF3 RING domain) | 0 |
| QLRRLQEERTCKVCLDRAVSIVFVPCGHLVCAECAPGLQLCPICRAPVRSRVRTF (BIRC7 RING domain (UniProt Q96CA5)) | 0 |
| KEQLEKHNDICAICYQDMKSAVITPCSHFFHAGCLKKWLYVQETCPLCHCHLKNSSQLP (RNF145 RING domain (UniProt Q96MT1)) | 0 |
| B4 (TRIM48 RING domain) | 0 |
| KITELNPHLMCVLCGGYFIDATTIIECLHSFCKTCIVRYLETSKYCPICDVQVHKTRPLL (BMI1 RING domain (UniProt P35226)) | 7060 |
| KLWDINAHITCRLCSGYLIDATTVTECLHTFCRSCLVKYLEENNTCPTCRIVIHQSHPLQ (PCGF3 RING domain (UniProt Q3KNV8)) | 0 |
| B5 (RNF24 RING domain) | 0 |
| B6 (RNF181 RING domain) | 0 |

Block 4
Target: Interferon regulatory factor 7, full length, phosphomimetic (IRF7, Homo sapiens, UniProt Q92985, residues 1-503, S101K/S471D/S472D/S475D/S476D/S477D/S483D/S484D/S487D)
Sequence of UniProt Q92985 (whole entry, unmodified, looked up): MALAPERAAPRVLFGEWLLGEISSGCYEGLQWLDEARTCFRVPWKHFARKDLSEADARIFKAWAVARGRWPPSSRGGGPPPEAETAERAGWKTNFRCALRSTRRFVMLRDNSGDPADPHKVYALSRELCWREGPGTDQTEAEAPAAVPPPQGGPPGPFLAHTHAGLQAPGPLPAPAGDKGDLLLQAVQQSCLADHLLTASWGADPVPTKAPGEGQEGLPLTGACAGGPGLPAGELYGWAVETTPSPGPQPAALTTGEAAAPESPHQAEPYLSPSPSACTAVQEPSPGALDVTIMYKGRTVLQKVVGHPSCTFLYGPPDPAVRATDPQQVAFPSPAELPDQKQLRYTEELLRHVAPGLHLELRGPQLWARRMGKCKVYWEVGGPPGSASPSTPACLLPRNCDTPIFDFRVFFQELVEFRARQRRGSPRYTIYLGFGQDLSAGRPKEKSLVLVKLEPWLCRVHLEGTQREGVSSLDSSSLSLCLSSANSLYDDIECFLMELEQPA
Technique: protein-binding microarray
Form: double-stranded DNA, one strand shown
Sample: in vitro
Tested at: 250 nM
Notes: 60-bp whole probe
With: salmon DNA 0.4 mg/ml
Reference: random background probes
Direction: higher = stronger binding
Shared flanks, not repeated: GCCTAGCAC … GTCTTGATTCGCTTGACGCTGCTG
| Strand | log fluorescence |
| --- | --- |
| AAACAAATAAGCCTTACTTGGTGCTAG | 0.223 z-score |
| GACGAACTAAGTATCGAGACGTGCTAG | 0.49 z-score |
| GACGAACTGAGTTTCGTGACGTGCTAG | 1.6 z-score |
| GACGGACTGGGGTTCCGGGACGTGCTA | -0.562 z-score |
| GACGGTGTCCTTTCCCTGACGTGCTAG | -0.0834 z-score |
| TTAGGTTTCGGACTGCGTTAGTGCTAG | 4.81 z-score |
| TCAACACTCGGTTTCCAACTGTGCTAG | 2.58 z-score |
| GACGTTATCGGGACTGGAGACGTGCTA | -0.103 z-score |
| GACGATATCAGACTTGAGACGTGCTAG | -0.498 z-score |
| GACGATATCGGGATTGGAGACGTGCTA | -0.3 z-score |
| TTAGGTTTCGGCCTCGGTTAGTGCTAG | 3.11 z-score |
| ATAGGTTTCTATATTTGCTTGTGCTAG | 3.03 z-score |
| GACGGGATCGGACTGGGGACGTGCTAG | 0.0783 z-score |
| ATCCATTTTGGTTTTCATTAGTGCTAG | 1.65 z-score |
| GATGGTTTCGACACTGGGGACGTGCTA | 4.03 z-score |

Block 5
Target: RNA binding protein fox-1 homolog 2, RRM domain, GST-SBP tag (RBFOX2, Homo sapiens, UniProt O43251-10, residues 100-194)
Technique: RNA Bind-n-Seq
Form: RNA
Sample: in vitro
Tested at: 365 nM
Notes: natural RNA segment, single round, ends assumed
Reference: no-protein control
Direction: higher = stronger binding
Residues (chain): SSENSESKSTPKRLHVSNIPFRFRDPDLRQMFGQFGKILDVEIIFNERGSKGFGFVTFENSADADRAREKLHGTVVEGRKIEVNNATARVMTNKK
| Strand | RBNS enrichment (R) |
| --- | --- |
| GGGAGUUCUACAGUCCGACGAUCUUAAACAGCAUUUUAAAGCACAGUCACUAGUAUUCCAGUUGUGUUUGUAGAAAAAAAAAAUCACAUCAUGGUGCUCCUGCGAUCAGCUUCUGAAGUGCUGGGAGCAUAGGUGGAAUUCUCGGGUGCCAA | 0.699 |
| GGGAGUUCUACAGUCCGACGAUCCCUGAUCUCCCUUUCCUGUAGACUGCAGGUUGCUCCUGUCCCUUGAGAUCUCAGUUAGGAGACACUGCUGUUUAUUUGACAAAGAAACUCAAGUGUGGGAUGGGGGGAAGUGGAAUUCUCGGGUGCCAA | 0.357 |
| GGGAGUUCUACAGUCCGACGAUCACAAUAAGUUCAGGAGCUGUGCCAAGCACUUUCCUCUUUUACAGCUGGAGAUCACUGGAAAGGUGUCUCAGUCACAAAACUUCUCCCUCUACUACUGGAUGAAAUGUCUGUGGAAUUCUCGGGUGCCAA | 0.398 |
| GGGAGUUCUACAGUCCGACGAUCGCCUGCCCGCCUUCUGUCCUGGAUCAGGAAGAUGGUAGCCUGCUGUUAGUAGCUUCACAGGGCUUUUAUGUUUAACUUAUUCCCAGGGGCCGUCCCACCCUGCUGUGCCUUGGAAUUCUCGGGUGCCAA | 0.73 |
| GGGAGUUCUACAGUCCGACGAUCGUCAUUUGUUUUUGUUUUAAGUGCUUUUGGGAUUUUAAACUGAUAGCCUCAAACUCCAAACACCAUAGGUAGGACACGAAGCUUAUCUGUGAUUCAAAACAAAGGAGAUAUGGAAUUCUCGGGUGCCAA | 0.413 |
| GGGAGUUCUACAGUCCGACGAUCGGUAUAUAUUUUUGUUAUCAGGUGCAUGUCUGUCUGAUUUCCUUUUCUUCUCGUUGGGACUAUGUUUGUGAACAUGAGCGUCAUAAGUUAUGUUUCAGAUUUUCAAAUUUUGGAAUUCUCGGGUGCCAA | 26.6 |
| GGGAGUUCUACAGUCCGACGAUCUGGCUCUAGAUCUACAUUCUUCAAAAAAAAAAAUUGGCUUAACUGUUUCAUCUUUAAGUAGCAUUUUGCUGCCAUUUGUAUUGGGCUGAAGAAAUCACUAUUGUGUAUAUUGGAAUUCUCGGGUGCCAA | 0.582 |
| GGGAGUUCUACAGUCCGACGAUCGGAAAAACAAAGUUGCCUGAUUCCGCGCAGGUGCACAGGCCCCGGAUGUACACCCGGAAAGGGGAGUGUGGCUGUAGAAUCAUCCAUCCGUCUACAGCUAAAACAAUUUGUGGAAUUCUCGGGUGCCAA | 0.341 |
| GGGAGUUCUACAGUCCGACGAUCGGUGAGCUCCACAAAUGAGGGCUCCCCAUCCCCACCAGAGCCGACUGGCAAGGGCAGCCUAGACACCAUGCUGGGGCUGCUGCAGUCCGACCUCAGCCGCCGGGGUGUUCUGGAAUUCUCGGGUGCCAA | 0.284 |
| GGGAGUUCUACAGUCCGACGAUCAGAAUGAGCCAACCCAUGUACCUGCUGCAACUGAACCAGACUGGGUUUUCAAGGCUCCCAGACGUAGAGUAGGAAACGUGCUCUUCUAAAUGAGGAGGGAGAAGAUAAAGUGGAAUUCUCGGGUGCCAA | 1.02 |
| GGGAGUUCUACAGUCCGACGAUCCAAAGCCGUACAGAGCCUACGUGCUCUUUCCUGCAAGUGGGAGAAAACUAAUCAAUGGCACACAGGGCCAGGUGUGGCCCUGUGAGGCAAAGGAUAAUGUCACCUCAGGAUGGAAUUCUCGGGUGCCAA | 0.271 |
| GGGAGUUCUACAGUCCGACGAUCGGGAGGCAGUCUUGUCACCUCCCAUCCAACAGUUCACAAACGGCUCAGUUCCUUCAUUCAGAUGGUUGGGUACGUGCUUGUGGCUGAGGAAGGGCGGGUGGUGUGGACAGUGGAAUUCUCGGGUGCCAA | 0.861 |

Block 6
Target: JDP2, bZIP domain (human)
Technique: DHFR protein complementation
Sample: yeast
Notes: single substitutions, most at no-binding floor
Reference: wild-type JUN-FOS pair
Direction: higher = stronger binding
Parent: JUN, bZIP domain (human); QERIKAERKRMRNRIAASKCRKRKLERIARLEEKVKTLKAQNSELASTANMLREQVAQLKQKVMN; partner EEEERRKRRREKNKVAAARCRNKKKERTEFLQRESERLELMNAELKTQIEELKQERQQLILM
| Change | binding fitness [natural log] |
| --- | --- |
| N42I | -0.108 |
| M51A | 0.37 |
| A57G | 0.328 |
| K36M | 0.407 |
| L38G | 0.0742 |
| A46Q | 0.228 |
| V56Y | -0.441 |
| A49D | -0.0218 |
| E33L | 0.268 |
| S47P | -0.171 |
| E44R | 0.223 |
| T48W | 0.154 |
| M51G | 0.287 |
| S47K | 0.307 |
| R53S | 0.218 |
| K39N | 0.301 |
| Q41V | 0.228 |

Repeated from above (block 1):
| Change | relative binding score |
| --- | --- |
| Q51R | 2.03% |
| R69K | 53.3% |
| H110Q | 34.8% |
| K54E | 1.11% |
